# Experimental data pooled from the literature.
# Each numbered part is a random draw from the data of one study; scales do not carry over between parts. “And” joins repeats or separate records; there may be more than shown.
# Sequence of UniProt O15197 (whole entry, looked up): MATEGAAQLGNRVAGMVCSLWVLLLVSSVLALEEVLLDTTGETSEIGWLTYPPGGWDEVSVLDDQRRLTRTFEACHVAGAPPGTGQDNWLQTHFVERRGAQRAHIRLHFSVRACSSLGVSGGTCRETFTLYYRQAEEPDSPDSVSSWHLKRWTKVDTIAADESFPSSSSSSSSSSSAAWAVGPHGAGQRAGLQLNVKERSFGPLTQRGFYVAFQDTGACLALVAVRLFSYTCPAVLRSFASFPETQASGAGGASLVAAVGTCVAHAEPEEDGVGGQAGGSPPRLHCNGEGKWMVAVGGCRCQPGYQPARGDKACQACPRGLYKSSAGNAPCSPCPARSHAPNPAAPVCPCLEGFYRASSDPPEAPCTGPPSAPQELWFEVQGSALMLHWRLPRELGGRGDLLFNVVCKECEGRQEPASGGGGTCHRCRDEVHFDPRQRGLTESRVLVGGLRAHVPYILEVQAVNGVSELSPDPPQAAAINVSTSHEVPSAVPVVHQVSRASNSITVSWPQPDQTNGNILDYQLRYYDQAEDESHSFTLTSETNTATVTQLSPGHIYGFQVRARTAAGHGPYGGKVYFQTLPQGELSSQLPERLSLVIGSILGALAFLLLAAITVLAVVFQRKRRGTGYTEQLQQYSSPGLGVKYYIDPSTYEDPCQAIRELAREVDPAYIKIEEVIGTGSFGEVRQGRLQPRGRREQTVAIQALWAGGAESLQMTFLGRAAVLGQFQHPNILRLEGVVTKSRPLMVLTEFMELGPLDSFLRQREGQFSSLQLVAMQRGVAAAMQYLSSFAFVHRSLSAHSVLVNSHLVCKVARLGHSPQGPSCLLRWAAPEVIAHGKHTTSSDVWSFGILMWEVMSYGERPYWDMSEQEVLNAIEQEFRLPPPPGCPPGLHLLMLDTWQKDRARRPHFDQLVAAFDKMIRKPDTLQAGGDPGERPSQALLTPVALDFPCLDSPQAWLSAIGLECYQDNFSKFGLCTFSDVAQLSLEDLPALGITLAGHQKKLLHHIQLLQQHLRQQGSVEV
# Sequence of UniProt Q96RR4 (whole entry, looked up): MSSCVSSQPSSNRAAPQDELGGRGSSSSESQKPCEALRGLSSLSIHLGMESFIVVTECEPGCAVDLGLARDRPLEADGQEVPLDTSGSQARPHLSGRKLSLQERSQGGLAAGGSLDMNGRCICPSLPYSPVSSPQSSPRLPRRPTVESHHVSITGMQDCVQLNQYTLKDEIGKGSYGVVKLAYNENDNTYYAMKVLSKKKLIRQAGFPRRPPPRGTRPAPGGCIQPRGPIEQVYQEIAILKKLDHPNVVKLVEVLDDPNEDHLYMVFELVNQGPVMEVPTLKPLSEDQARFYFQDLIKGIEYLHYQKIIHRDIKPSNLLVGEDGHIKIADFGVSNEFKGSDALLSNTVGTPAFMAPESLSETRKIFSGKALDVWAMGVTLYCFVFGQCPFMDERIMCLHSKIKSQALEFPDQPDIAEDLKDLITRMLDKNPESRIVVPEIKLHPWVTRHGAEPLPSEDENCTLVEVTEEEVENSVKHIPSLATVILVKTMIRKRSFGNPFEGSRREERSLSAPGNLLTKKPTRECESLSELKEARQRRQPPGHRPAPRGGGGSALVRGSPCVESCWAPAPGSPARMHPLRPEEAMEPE
# Sequence of UniProt P08069 (whole entry, looked up): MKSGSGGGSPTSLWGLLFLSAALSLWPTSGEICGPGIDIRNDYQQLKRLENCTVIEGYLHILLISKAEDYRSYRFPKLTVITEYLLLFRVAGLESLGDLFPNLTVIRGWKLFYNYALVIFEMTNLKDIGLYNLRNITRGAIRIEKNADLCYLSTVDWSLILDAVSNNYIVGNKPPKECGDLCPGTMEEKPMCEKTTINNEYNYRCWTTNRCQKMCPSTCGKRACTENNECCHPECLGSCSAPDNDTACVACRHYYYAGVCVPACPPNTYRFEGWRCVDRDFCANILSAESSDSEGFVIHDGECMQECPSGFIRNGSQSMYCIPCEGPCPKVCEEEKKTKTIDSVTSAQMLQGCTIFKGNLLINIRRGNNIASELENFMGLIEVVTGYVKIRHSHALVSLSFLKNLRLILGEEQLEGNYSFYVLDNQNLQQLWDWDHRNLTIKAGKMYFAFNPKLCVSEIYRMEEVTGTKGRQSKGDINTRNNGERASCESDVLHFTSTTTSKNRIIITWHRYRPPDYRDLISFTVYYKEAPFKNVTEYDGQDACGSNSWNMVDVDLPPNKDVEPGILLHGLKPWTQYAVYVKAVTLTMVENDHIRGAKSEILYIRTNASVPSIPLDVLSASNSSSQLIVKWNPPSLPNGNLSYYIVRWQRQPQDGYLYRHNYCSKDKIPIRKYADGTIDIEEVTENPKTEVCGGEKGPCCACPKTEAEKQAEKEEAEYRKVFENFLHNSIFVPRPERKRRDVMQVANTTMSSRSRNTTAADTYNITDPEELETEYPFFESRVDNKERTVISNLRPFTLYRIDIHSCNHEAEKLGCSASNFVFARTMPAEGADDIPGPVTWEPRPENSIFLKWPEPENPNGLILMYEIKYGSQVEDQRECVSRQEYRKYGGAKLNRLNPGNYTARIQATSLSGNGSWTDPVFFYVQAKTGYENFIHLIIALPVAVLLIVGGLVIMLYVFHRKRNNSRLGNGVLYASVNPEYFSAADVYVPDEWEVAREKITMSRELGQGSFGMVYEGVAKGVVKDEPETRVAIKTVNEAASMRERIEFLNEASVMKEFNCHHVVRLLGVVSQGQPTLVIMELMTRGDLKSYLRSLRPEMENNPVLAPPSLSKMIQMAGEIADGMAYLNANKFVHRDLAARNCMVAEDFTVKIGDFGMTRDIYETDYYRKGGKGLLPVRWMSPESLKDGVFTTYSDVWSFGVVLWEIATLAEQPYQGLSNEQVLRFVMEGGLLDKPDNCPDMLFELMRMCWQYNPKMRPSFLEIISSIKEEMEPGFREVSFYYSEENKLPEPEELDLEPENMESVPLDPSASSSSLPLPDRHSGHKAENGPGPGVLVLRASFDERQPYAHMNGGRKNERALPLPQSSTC
# Sequence of UniProt Q9P286 (whole entry, looked up): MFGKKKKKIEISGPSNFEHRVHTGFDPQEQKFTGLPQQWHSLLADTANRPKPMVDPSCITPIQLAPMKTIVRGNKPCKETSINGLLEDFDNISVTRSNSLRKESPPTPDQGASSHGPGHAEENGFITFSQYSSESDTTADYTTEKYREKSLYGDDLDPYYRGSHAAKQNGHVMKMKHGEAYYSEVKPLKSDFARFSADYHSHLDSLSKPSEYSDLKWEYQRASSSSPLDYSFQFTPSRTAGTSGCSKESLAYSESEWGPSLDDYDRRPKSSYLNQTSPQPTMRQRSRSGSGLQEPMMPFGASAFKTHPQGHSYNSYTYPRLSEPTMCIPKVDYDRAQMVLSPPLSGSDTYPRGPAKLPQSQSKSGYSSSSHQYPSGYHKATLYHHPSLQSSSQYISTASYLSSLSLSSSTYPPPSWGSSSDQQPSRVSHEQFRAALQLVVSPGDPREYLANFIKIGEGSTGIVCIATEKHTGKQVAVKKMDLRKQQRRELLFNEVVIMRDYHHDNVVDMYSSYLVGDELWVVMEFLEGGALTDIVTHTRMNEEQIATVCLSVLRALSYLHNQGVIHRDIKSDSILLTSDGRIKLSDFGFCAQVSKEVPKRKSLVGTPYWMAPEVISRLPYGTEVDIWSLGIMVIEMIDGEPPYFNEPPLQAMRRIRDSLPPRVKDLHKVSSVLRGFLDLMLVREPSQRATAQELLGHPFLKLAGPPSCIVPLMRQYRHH
# Sequence of UniProt Q13976 (whole entry, looked up): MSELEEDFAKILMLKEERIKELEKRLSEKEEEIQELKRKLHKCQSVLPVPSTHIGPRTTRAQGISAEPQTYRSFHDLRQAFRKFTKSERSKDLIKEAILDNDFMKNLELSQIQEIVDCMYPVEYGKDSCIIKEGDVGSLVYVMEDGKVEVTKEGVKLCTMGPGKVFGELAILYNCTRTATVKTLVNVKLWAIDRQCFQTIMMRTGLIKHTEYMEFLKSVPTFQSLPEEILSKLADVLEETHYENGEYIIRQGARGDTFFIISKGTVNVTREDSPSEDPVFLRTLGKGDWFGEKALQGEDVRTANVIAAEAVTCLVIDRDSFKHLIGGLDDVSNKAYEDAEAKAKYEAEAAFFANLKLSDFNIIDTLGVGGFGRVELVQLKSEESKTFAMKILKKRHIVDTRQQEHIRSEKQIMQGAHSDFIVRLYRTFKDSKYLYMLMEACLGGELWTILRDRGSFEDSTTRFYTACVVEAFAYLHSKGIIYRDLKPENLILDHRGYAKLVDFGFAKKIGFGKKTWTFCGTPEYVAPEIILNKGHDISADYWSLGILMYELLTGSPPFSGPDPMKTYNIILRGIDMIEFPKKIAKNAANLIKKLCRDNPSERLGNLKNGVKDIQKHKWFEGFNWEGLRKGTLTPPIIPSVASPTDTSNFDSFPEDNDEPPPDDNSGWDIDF
# Sequence of UniProt Q15831 (whole entry, looked up): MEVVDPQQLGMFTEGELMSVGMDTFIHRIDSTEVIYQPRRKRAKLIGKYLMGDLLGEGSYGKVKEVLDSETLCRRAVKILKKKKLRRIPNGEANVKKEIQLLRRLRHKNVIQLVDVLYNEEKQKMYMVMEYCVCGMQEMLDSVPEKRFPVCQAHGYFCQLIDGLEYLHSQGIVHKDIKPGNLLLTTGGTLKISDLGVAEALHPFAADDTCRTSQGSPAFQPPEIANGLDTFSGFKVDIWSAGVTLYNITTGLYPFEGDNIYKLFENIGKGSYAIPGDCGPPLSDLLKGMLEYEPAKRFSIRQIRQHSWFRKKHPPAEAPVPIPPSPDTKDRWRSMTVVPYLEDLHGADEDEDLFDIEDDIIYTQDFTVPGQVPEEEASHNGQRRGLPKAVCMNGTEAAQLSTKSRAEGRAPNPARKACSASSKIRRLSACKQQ

# Series 1
# SMILES: COc1cc(Nc2c(C#N)cnc3cc(OCCCN4CCN(C)CC4)c(OC)cc23)c(Cl)cc1Cl
# Observed: enzyme activity
# Mode: inhibitor
# Concentration: 0.5 µM
# Relative to: control
target,remaining activity [%]
"GRK3 (Homo sapiens, UniProt P35626)",99.2
"STK11 (Homo sapiens, UniProt Q15831)",98.1
"Cyclin-dependent kinase 4, with cyclin D1 (CDK4, Homo sapiens, UniProt P11802)",97.1
"TGFBR2 (Homo sapiens, UniProt P37173)",95.7
"NEK2 (Homo sapiens, UniProt P51955)",8.56
"DAPK2 (Homo sapiens, UniProt Q9UIK4)",82.9
"Tyrosine-protein kinase Lyn, isoform B (LYN, Homo sapiens, UniProt P07948)",6
"STK39 (Homo sapiens, UniProt Q9UEW8)",93.6
"CAMKK2 (Homo sapiens, UniProt Q96RR4)",85.1
"cGMP-dependent protein kinase 1, isoform beta (PRKG1, Homo sapiens, UniProt Q13976)",94.9

# Series 2
# Structure (SMILES): CNC(=O)Nc1ccc2c(c1)[C@@]1(CC2)OC(=O)N(CC(=O)N(Cc2ccc(F)cc2)[C@@H](C)C(F)(F)F)C1=O
# Observed: cell-free assay
# Method: competition with immobilised ligand
# Concentration: 1 µM
target,remaining binding
"Tyrosine-protein kinase ABL1, non-phosphorylated (ABL1, Homo sapiens, UniProt P00519, F317I)",78%
"FLT3 (Homo sapiens, UniProt P36888, N841I)",100%
"EPHA2 (Homo sapiens, UniProt P29317)",100%
"EPHB6 (Homo sapiens, UniProt O15197)",0%
"IGF1R (Homo sapiens, UniProt P08069)",100%
"CSNK1G1 (Homo sapiens, UniProt Q9HCP0)",78%
"CDK5 (Homo sapiens, UniProt Q00535)",79%
"FLT3 (Homo sapiens, UniProt P36888, R834Q)",96%
"LIM domain kinase 1 (LIMK1, Homo sapiens, UniProt P53667)",87%
"PAK5 (Homo sapiens, UniProt Q9P286)",100%
"SRPK3 (Homo sapiens, UniProt Q9UPE1)",100%
"BRAF (Homo sapiens, UniProt P15056)",100%
"CDK9 (Homo sapiens, UniProt P50750)",91%
"LRRK2 (Homo sapiens, UniProt Q5S007, G2019S)",100%
"MATK (Homo sapiens, UniProt P42679)",100%

# Series 3
# Organism: Sarcocystis neurona
# Observed: parasite activity
# Concentration: concentration not given
SMILES,activity class
C[C@]12CC[C@@H]3c4ccc(OS(=O)(=O)O)cc4CC[C@H]3[C@@H]1CCC2=O,inactive
COC(=O)C1=C(C)NC(C)=C(C(=O)O[C@@H]2CCCN(Cc3ccccc3)C2)[C@@H]1c1cccc([N+](=O)[O-])c1.Cl (racemic),inactive
OC[C@H]1O[C@@H](n2cnc3c(NC4CCCC4)nc(Cl)nc32)[C@H](O)[C@@H]1O,inactive
COc1cc(N)c(Cl)cc1C(=O)NC1CCN(CCCOc2ccc(F)cc2)CC1OC.O (stereo not drawn),inactive
CN(Cc1cnc2nc(N)nc(N)c2n1)c1ccc(C(=O)N[C@@H](CCC(=O)O)C(=O)O)cc1.O,inactive
Nc1c2c(nc3c1CCC3)CCCC2,inactive
CCN(CC)C(=O)C1(c2ccccc2)CC1CN.Cl (stereo not drawn),inactive

# Mixed results
SMILES,cell line,method,concentration,time,relative to,endpoint,result
O=C(COc1ccc(Cl)cc1)NC1CCC(NC(=O)COc2ccc(Cl)cc2)CC1 (stereo not drawn),L444P/L444P Gaucher fibroblasts,4-MUG hydrolysis in lysate,0.2 µM,72 h,vehicle,enzyme activity,116% and 126% and 125% and 111% and 123%

# Repeated from above (series 1):
target,remaining activity [%]
"Cyclin-dependent kinase 4, with cyclin D1 (CDK4, Homo sapiens, UniProt P11802)",97.1
"TGFBR2 (Homo sapiens, UniProt P37173)",95.7
"NEK2 (Homo sapiens, UniProt P51955)",8.56
"DAPK2 (Homo sapiens, UniProt Q9UIK4)",82.9
